Measurements collected from several papers.
Numbers after ± are the reported error.
UniProt O95786, sequence (whole entry, looked up): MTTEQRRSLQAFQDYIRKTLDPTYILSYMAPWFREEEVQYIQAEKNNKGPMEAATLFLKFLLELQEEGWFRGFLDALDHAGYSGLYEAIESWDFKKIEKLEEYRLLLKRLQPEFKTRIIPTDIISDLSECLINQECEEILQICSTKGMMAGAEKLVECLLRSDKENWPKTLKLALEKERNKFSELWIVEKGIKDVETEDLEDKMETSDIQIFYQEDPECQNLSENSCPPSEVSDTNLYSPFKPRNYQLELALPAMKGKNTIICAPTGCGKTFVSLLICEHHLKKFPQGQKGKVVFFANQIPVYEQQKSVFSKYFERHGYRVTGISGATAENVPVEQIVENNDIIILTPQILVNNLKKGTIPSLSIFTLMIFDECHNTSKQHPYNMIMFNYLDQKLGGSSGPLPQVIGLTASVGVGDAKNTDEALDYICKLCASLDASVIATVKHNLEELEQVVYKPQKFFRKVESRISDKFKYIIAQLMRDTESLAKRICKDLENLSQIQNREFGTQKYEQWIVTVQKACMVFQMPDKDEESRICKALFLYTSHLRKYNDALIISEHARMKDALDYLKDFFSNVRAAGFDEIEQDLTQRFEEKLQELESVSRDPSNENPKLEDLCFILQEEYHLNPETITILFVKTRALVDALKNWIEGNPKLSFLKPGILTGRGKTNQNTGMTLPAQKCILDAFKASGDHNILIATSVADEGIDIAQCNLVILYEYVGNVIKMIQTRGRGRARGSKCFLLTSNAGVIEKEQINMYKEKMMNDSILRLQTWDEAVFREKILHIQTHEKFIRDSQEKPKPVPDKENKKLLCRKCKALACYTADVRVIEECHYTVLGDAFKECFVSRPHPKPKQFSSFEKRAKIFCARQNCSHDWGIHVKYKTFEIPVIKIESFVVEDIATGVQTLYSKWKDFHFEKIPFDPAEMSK

| Molecule | target or system | test | test system | setting | how to read | measurement | value |
| --- | --- | --- | --- | --- | --- | --- | --- |
| CC(C)(Sc1cc[n+]([O-])cc1-c1ccc(C#N)c2ccccc12)C(=O)OC1OC(C(=O)O)C(O)C(O)C1O (centres unmarked) |  |  | urine | oral, 15 mg, 72 h, moderate renal impairment | baseline: dose | fraction excreted unchanged | 15% |
| RNA 1 GCAUGCGACCUCUGUUUGA / RNA 2 UCAAACAGAGGUCGCAUGC (dsRNA; 5'-triphosphate, duplex, 19 bp) | RIGI 2-925 (Homo sapiens, UniProt O95786) | MST | double-stranded RNA | together with: AMP-CP 0.4 mM; MgCl2.5 mM |  | Kd | 1.2 ± 0.3 nM |
| Polymyxin B |  | ultrafiltration ELISA | human citrate plasma | 1 µg/mL, 10 kDa MMCO filter | baseline: positive control | fraction in filtrate | 1% |
| CC(C)(Sc1ccncc1-c1ccc(C#N)c2ccccc12)C(=O)OC1OC(C(=O)O)C(O)C(O)C1O (centres unmarked) |  |  | urine | oral, 15 mg, 72 h, severe renal impairment | baseline: dose | fraction excreted unchanged | 4.32% |
| CCCCc1oc2ccccc2c1C(=O)c1cc(I)c(OCCNCC)c(I)c1 |  | ultracentrifugation | human plasma | 2 h |  | fraction unbound | 0.02 ± 0.004 |
| COc1ccc(S(=O)(=O)N(C)/N=C/c2ccc(C#N)cc2)cc1OC |  | PAMPA-GIT |  | 500 µM, 8 h |  | fraction absorbed | 100% |
| O=c1[nH]c(=O)n(C2OC(CO)C(O)C2O)cc1-n1nnc2c1CCC1C(CO)C1CC2 (mixture of isomers) |  | HDM-PAMPA |  | 75 µM, 16 h, ambient |  | fraction absorbed | 20% |
| COC1C=COC2(C)Oc3c(C)c(O)c4c(c3C2=O)C2=NC3(CCN(CC(C)C)CC3)NC2=C(NC(=O)C(C)=CC=CC(C)C(O)C(C)C(O)C(C)C(OC(=O)c2cncnc2)C1C)C4=O (centres unmarked) |  |  | human plasma |  |  | fraction unbound | 0.094 |
| O=C(Cc1ccccc1)Nc1nc2ccccc2n1Cc1ccccc1 |  |  | human liver microsomes | 0.5 µM, 1 mg/mL protein |  | fraction unbound | 34% |
| COC1C=COC2(C)Oc3c(C)c(O)c4c(c3C2=O)C2=NC3(CCN(CC(C)C)CC3)NC2=C(NC(=O)C(C)=CC=CC(C)C(O)C(C)C(O)C(C)C(OC(=O)Nc2cccnn2)C1C)C4=O (centres unmarked) |  | rapid equilibrium dialysis | mouse plasma |  |  | fraction unbound | 0.068 |
| NC(=O)c1c(F)ccc(OCc2nc3cc(Cl)cnc3s2)c1F |  | equilibrium dialysis | mouse plasma | 10 µM |  | fraction unbound | 0.15 ± 0.06 |

For quick reference, copied from above:
| Molecule | target or system | test | test system | setting | how to read | measurement | value |
| --- | --- | --- | --- | --- | --- | --- | --- |
| COC1C=COC2(C)Oc3c(C)c(O)c4c(c3C2=O)C2=NC3(CCN(CC(C)C)CC3)NC2=C(NC(=O)C(C)=CC=CC(C)C(O)C(C)C(O)C(C)C(OC(=O)Nc2cccnn2)C1C)C4=O (centres unmarked) |  | rapid equilibrium dialysis | mouse plasma |  |  | fraction unbound | 0.068 |
